Measurements collected from several papers.
Lines come from different studies, so protocols differ. Numbers after ± are the reported error.
lasR: Transcriptional activator protein LasR (lasR, Pseudomonas aeruginosa, UniProt P25084)
Oprd1: Delta-type opioid receptor (Oprd1, Mus musculus, UniProt P32300)
CNR1: Cannabinoid receptor 1 (CNR1, Homo sapiens, UniProt P21554)

Protein sequences, listed by entry. Tags and fused reporters are not part of them. Residues count along the entry.
UniProt P25084, whole entry: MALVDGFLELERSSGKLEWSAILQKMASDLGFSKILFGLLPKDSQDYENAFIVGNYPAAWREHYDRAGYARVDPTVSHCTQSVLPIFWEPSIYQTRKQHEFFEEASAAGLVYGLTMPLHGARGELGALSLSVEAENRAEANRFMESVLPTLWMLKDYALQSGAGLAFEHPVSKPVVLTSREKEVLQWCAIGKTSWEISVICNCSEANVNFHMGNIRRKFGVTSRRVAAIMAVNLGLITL
UniProt P32300, whole entry: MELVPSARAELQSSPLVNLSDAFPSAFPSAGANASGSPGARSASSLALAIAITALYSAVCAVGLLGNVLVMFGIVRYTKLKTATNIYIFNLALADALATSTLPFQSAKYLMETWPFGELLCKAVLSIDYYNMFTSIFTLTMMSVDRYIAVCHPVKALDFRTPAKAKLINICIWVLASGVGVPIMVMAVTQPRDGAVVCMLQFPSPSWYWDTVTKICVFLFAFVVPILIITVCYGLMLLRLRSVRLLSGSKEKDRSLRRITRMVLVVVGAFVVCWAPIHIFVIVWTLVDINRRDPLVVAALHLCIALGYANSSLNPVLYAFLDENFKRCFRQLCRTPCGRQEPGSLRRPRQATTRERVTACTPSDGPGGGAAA
UniProt P21554, whole entry: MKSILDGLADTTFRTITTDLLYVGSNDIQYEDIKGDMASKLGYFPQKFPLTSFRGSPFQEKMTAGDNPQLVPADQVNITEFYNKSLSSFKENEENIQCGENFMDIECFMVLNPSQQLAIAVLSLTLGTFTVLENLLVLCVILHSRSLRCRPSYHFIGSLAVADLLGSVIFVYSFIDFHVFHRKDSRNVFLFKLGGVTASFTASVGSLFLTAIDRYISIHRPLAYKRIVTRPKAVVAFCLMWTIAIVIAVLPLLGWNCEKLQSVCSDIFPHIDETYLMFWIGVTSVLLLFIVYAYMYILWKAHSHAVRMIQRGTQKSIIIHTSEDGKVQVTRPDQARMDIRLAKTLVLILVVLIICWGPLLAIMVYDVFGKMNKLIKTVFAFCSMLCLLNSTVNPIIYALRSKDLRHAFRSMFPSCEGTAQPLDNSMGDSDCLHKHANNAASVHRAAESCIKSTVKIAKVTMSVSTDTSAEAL
UniProt P11229, whole entry: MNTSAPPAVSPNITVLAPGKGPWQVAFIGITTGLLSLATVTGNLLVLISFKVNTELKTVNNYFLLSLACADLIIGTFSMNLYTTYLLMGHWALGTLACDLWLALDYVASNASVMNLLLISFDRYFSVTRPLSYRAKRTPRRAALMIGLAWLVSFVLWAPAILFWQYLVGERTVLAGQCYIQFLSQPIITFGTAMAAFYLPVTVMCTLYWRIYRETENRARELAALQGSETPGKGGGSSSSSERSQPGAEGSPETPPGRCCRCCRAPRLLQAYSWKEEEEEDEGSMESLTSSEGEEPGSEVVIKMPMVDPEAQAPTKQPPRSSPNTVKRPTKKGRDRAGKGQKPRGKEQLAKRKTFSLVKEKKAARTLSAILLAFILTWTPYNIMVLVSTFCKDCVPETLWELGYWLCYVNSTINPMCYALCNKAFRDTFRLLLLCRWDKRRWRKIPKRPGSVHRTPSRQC
UniProt Q01959, whole entry: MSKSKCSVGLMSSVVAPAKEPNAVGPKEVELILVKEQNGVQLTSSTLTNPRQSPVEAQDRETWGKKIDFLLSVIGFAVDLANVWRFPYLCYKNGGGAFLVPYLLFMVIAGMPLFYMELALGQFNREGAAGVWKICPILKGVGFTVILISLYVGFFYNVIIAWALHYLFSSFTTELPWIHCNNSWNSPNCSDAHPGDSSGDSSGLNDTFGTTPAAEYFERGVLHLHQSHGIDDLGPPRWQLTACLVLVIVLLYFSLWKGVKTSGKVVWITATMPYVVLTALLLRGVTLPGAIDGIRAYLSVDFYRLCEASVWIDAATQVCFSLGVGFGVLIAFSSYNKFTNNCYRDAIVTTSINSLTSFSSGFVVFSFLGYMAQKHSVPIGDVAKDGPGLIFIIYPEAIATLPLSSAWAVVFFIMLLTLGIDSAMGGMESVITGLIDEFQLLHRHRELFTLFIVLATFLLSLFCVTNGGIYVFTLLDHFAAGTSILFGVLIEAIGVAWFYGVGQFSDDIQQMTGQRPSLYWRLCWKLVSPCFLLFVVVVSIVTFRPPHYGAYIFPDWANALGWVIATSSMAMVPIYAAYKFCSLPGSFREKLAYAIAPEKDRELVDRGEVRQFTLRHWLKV
UniProt P35372, whole entry: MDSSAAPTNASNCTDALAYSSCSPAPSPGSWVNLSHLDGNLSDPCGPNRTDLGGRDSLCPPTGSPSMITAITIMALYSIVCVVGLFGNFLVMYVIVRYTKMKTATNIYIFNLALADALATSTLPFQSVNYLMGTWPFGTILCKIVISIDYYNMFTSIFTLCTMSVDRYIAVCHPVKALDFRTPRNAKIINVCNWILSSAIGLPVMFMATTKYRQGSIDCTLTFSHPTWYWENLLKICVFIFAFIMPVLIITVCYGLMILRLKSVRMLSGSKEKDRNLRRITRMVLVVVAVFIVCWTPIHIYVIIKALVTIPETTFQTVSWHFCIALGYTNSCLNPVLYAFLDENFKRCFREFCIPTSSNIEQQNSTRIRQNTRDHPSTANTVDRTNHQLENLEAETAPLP
UniProt Q9EP66, whole entry: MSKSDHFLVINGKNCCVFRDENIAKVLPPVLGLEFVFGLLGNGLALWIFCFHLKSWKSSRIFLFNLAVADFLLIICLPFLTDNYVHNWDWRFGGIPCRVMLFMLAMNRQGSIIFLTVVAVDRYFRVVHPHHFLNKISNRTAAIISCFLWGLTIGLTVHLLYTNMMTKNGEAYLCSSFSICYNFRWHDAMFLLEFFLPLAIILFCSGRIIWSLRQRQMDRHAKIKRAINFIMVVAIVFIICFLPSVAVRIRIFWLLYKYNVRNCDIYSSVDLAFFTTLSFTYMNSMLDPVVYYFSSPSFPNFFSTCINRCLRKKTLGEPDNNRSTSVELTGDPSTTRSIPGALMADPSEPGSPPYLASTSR
UniProt P35348, whole entry: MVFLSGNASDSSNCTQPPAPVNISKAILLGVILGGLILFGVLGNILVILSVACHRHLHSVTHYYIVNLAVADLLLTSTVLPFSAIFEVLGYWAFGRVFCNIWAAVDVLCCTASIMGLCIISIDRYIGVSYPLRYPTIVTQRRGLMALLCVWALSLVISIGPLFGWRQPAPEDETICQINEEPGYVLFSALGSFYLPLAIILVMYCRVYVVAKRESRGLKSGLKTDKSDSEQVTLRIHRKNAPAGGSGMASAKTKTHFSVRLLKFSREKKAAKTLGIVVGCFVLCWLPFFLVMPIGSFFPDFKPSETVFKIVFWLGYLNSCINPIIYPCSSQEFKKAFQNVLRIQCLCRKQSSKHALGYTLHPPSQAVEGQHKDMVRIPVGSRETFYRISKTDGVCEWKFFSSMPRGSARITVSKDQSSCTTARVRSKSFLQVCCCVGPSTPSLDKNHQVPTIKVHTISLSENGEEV
UniProt Q3TBT3, whole entry: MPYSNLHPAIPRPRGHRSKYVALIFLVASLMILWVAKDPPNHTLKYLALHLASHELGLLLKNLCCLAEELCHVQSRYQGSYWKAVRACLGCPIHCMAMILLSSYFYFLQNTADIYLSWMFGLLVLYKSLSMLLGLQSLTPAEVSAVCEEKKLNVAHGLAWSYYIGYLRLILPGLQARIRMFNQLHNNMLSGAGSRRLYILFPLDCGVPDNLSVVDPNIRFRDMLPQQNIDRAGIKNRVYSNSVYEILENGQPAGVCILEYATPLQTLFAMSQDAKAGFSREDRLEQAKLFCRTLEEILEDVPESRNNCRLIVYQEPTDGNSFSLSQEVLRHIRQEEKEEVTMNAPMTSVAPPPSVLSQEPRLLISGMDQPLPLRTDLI
UniProt P29990, 1476-2093 limits assumed: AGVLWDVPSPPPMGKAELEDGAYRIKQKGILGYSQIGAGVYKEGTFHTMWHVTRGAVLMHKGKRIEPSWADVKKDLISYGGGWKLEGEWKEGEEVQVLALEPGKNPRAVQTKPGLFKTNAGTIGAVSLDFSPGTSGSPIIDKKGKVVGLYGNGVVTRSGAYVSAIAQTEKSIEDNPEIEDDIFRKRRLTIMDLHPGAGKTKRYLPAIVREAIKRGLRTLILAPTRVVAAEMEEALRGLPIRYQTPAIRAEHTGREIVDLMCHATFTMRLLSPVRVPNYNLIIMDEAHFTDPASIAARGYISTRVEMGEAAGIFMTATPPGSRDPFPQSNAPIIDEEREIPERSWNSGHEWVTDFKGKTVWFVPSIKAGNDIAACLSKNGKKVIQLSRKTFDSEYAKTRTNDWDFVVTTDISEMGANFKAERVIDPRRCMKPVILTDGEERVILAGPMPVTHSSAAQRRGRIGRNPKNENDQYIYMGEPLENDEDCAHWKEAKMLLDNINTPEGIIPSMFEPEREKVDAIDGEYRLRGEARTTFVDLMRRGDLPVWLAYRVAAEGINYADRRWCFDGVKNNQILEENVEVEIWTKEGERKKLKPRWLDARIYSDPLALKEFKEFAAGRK
UniProt P29990, 1346-1475 partner limits assumed: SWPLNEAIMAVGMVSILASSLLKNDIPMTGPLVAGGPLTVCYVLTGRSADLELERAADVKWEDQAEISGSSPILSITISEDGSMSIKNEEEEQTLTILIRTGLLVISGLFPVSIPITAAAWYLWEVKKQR

| SMILES | tested on | assay | test system | setting | measurement | result |
| --- | --- | --- | --- | --- | --- | --- |
| O=C(N[C@H]1CCCC[C@@H]1O)C1CN(Cc2ccc(-n3cccn3)cc2)c2ccccc2O1 (stereo partly drawn) | Muscarinic acetylcholine receptor M1 (CHRM1, Homo sapiens, UniProt P11229) | calcium mobilization, agonist | high-expression cell line |  | EC50 | > 10000 nM |
| O=C(Oc1c(Br)cc(Br)cc1CNC(=O)c1ccccc1[N+](=O)[O-])c1ccccc1Cl | lasR | reporter gene, agonist | Escherichia coli JLD271 lasI-lacZ reporter |  | EC50 | 0.924 nM |
| N#Cc1cc(C(=O)N[C@@H]2CC[C@@]3(O)[C@H]4Cc5ccc(O)c6c5[C@@]3(CCN4CC3CC3)[C@H]2O6)ccn1 | Oprd1 | agonist | CHO cell membranes |  | EC50 | 29.9 ± 3.99 nM |
| CCCOC(=O)[C@@]12C[C@@H]1[C@@H](n1cnc3c(NC)nc(C#Cc4ccc(Cl)s4)nc31)[C@H](O)[C@@H]2O | Sodium-dependent dopamine transporter (SLC6A3, Homo sapiens, UniProt Q01959) |  |  |  | EC50 | 570 nM |
| COCOc1ccc(C(=O)OC2=C[C@@H](C(=O)OC)[C@]3(C)CC[C@H]4C(=O)O[C@H](c5ccoc5)C[C@]4(C)[C@H]3C2=O)cc1F | Mu-type opioid receptor (OPRM1, Homo sapiens, UniProt P35372) | agonist |  |  | EC50 | 3.4 ± 0.6 nM |
| O=C(NCc1cc(Br)cc(Br)c1O)c1ccccc1[N+](=O)[O-] | lasR | reporter gene, agonist | Escherichia coli JLD271 lasI-lacZ reporter |  | EC50 | > 900 nM |
| C=CC(=O)Nc1cc(-n2c(=O)ccc3cnc4ccc(-c5cn[nH]c5)cc4c32)ccc1C | OCI-AML-3 | cell growth |  | 72 h | GI50 | 1400 nM |
| O=C(NCc1cc(Br)cc(Br)c1OC(=O)c1ccccc1[N+](=O)[O-])c1ccccc1[N+](=O)[O-] | lasR | reporter gene, agonist | Escherichia coli JLD271 lasI-lacZ reporter |  | EC50 | 0.674 nM |
| CC1(Cc2ccccc2)COc2cc(C(=O)Nc3ccccc3I)ccc21 (racemic) | CNR1 |  | CHO cell membranes |  | EC50 | > 10000 nM |
| NCCNCCSc1ccccc1 |  | spectrophotometry |  | pH 5.6 | pKa | 5.74 |
| C1c2c(-c3nnn[nH]3)n[nH]c2[C@@H]2C[C@H]12 | Hydroxycarboxylic acid receptor 2 (Hcar2, Mus musculus, UniProt Q9EP66) | cAMP level, agonist, GloSensor | cells expressing wild-type mouse receptor |  | EC50 | 82 nM |
| COCOc1ccc(C(=O)OC2=C[C@@H](C(=O)OC)[C@]3(C)CC[C@H]4C(=O)O[C@H](c5ccoc5)C[C@]4(C)[C@H]3C2=O)cc1Br | Mu-type opioid receptor, with beta-arrestin-2 (OPRM1, Homo sapiens, UniProt P35372) | β-arrestin recruitment, agonist |  |  | EC50 | > 25000 nM |
| N#Cc1ccccc1C(=O)Oc1c(Br)cc(Br)cc1CNC(=O)c1ccccc1[N+](=O)[O-] | lasR | reporter gene, agonist | Escherichia coli JLD271 lasI-lacZ reporter |  | EC50 | 5.64 nM |
| CC1(Cc2ccccc2)COc2ccc(C(=O)Nc3ccccc3I)cc21 (racemic) | CNR1 |  | CHO cell membranes |  | EC50 | > 10000 nM |
| COc1ccc(CN[C@@H]2CO[C@H](C(c3ccccc3)c3ccccc3)C[C@H]2O)cc1 | Alpha-1A adrenergic receptor (ADRA1A, Homo sapiens, UniProt P35348) | radioligand binding |  | 10 µM, with: [3H]prazosin | inhibition | 51.6% |
| CCCCCCCCCCCCNC(=O)N[C@H](C(=O)N[C@H]1/C=C/CCNC(=O)/C=C/[C@H](C)NC1=O)C(C)C | Proteasome Macropain subunit MB1 (PSMB5, Homo sapiens, UniProt P28074) | chymotrypsin-like activity, inhibitor, Proteasome-Glo | MM.1R | 24 h | Ki | 26.8 ± 5.2 nM |
| O=C(N[C@@H]1CC[C@@]2(O)[C@H]3Cc4ccc(O)c5c4[C@@]2(CCN3CC2CC2)[C@H]1O5)c1ccnc(Br)c1 | Oprd1 | agonist | CHO cell membranes |  | EC50 | 15.8 ± 2.96 nM |
| [11CH3]Nc1ccc(C(=O)C2CCN(C3Cc4ccccc4CC3O)CC2)cc1 (single isomer, unassigned) |  | microPET | cynomolgus monkey, male, brain | dose not given | time to peak radioactivity | 10 min |
| O=C(Oc1c(Br)cc(Br)cc1CNC(=O)c1ccccc1[N+](=O)[O-])c1ccc(Br)cc1 | lasR | reporter gene, agonist | Escherichia coli JLD271 lasI-lacZ reporter |  | EC50 | 1.62 nM |
| CC(C)C[C@@H](NC(=O)[C@H](NC(=O)[C@H]1CCCN1)[C@H](C)O)C(=O)N[C@H](Cc1c[nH]cn1)C(=O)N[C@@H](C(=O)N[C@H](Cc1c[nH]cn1)C(=O)N[C@H](CC(N)=O)C(=O)N[C@H](CCCNC(=N)N)C(=O)N[C@H](CCCNC(=N)N)C(=O)N[C@H](CCCNC(=N)N)C(=O)N[C@H](CCCNC(=N)N)C(=O)N[C@H](CCCNC(=N)N)C(N)=O)[C@H](C)O |  |  | healthy human, fasted, plasma | oral, dose not given | earliest Tmax | 30 min |
| CCn1nc(C)cc1C(=O)Nc1nc2cc(C(N)=O)cc(OC)c2n1C/C=C/Cn1c(NC(=O)c2cc(C)nn2CC)nc2cc(C(N)=O)cc(OCCCN3CCN(C(=O)CCCCN=[N+]=[N-])CC3)c21 | Stimulator of interferon genes protein (Sting1, Mus musculus, UniProt Q3TBT3) | IFN-β secretion, agonist, ELISA | mouse BMDCs | carrier-free cysteine-blocked click | EC50 | 75 ± 14 nM |
| N=C(N)NCCC[C@H](NC(=O)c1ccccc1)C(=O)N[C@@H](CCCCN)C(=O)N[C@@H](C(N)=O)c1ccc(OCc2ccccc2)cc1 | Genome polyprotein, NS2B-NS3 protease (dengue virus type 2, UniProt P29990) | reporter gene | HeLa DENV2 protease reporter |  | EC50 | 19600 ± 1800 nM |
| NC[C@@H](NC[C@@H]1CCCN1C[C@@H](CO)NC[C@@H](NCCC1CC2CCC1C2)c1ccccc1)c1ccccc1 (stereo partly drawn) | Escherichia coli | bacterial growth |  | 16 µM, fold shift of IC90, with: amikacin | potentiation of amikacin | 2.3 fold |
| C[C@H](CS)C(=O)N[C@H](Cc1c[nH]c2ccccc12)C(=O)O | Escherichia coli |  | VIM-1 producing | 10 µM, with: meropenem | MIC of meropenem | 8 µg/mL |

For quick reference, copied from above:
| SMILES | tested on | assay | test system | setting | measurement | result |
| --- | --- | --- | --- | --- | --- | --- |
| CCCOC(=O)[C@@]12C[C@@H]1[C@@H](n1cnc3c(NC)nc(C#Cc4ccc(Cl)s4)nc31)[C@H](O)[C@@H]2O | Sodium-dependent dopamine transporter (SLC6A3, Homo sapiens, UniProt Q01959) |  |  |  | EC50 | 570 nM |
| CCCCCCCCCCCCNC(=O)N[C@H](C(=O)N[C@H]1/C=C/CCNC(=O)/C=C/[C@H](C)NC1=O)C(C)C | Proteasome Macropain subunit MB1 (PSMB5, Homo sapiens, UniProt P28074) | chymotrypsin-like activity, inhibitor, Proteasome-Glo | MM.1R | 24 h | Ki | 26.8 ± 5.2 nM |
